# Results pooled from the literature.
# Each numbered part is a random draw from the data of one study; scales do not carry over between parts. Substitutions count along the parent as printed.

# Sample 1 — method: universal PBM; form: double-stranded DNA, one strand shown; sample: in vitro; tested at: not given; reading: higher = stronger binding
# Target: Sal-like protein 4, full length isoform B (SALL4, Homo sapiens, UniProt Q9UJQ4-2, residues 1-616)
# Setting: 8-mer, flanks averaged, mean of replicates
# Residues (chain): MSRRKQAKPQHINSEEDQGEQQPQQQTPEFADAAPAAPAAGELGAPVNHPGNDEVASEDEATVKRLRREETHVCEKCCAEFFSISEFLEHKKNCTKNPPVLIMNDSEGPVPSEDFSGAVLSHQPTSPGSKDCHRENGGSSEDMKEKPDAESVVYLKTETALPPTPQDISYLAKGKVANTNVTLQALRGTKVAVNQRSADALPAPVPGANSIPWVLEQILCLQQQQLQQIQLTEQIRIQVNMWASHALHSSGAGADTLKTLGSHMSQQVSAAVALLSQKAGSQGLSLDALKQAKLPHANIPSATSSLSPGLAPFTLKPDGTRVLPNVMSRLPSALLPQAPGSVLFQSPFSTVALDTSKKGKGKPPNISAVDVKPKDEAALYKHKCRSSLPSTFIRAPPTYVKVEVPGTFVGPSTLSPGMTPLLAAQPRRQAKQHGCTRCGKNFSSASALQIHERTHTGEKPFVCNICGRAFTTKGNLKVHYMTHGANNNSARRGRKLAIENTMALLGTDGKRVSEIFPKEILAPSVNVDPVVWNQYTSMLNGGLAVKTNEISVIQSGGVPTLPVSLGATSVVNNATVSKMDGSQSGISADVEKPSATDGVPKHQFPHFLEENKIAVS
Sequence,E-score
TGAGGTAA,0.0414
AAATAGCT,0.156
AATAACCA,0.337
CTCCCGAC,-0.177
AGGGGTTC,-0.301
CAGCTATC,-0.125
TAAAGCCA,0.115
AAACGATT,0.187
ACGAGCTC,-0.271
AAAGCATA,0.282
AACTACCT,0.0248
CATGACTA,0.0508
ATAGCTGG,-0.0789
AAAAGCAT,0.231

# Sample 2 — target: CCNB3, cyclin fold, Cln2 fusion (human); method: yeast growth competition, sequencing; sample: yeast; setting: strong parent motif; reference: not given; reading: higher = stronger binding
# Parent: BRCA2 docking peptide (human); PSIKRNLLNEFDR; partner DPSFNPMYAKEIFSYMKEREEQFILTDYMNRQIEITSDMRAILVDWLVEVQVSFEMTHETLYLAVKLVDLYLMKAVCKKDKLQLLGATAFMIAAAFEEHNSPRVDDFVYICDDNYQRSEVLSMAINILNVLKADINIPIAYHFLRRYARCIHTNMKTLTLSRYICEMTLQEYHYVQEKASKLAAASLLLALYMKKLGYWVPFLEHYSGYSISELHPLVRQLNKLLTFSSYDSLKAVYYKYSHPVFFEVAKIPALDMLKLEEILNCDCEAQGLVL
Substitution,normalised enrichment score
PSIKLNLLNEFDR [R5L],0.228
PSIKRNLLNELDR [F11L],0.141
PSIKRNLLNEVDR [F11V],0.28
PSIKRNLLNEFDA [R13A],1.14
PSIKRNTLNEFDR [L7T],0.371
PSIKRYLLNEFDR [N6Y],0.0784
PSIKNNLLNEFDR [R5N],-0.132
PSICRNLLNEFDR [K4C],1.5
PSIKRGLLNEFDR [N6G],-0.11

# Sample 3 — method: DHFR PCA, deep sequencing; sample: yeast; added: (+)-ABA 0.11 µM; reference: wild-type fitted maximum; reading: higher = stronger binding
# Target: ABI1, truncated, D143A, DHFR fusion (Arabidopsis thaliana)
# Setting: methotrexate growth selection, single substitutions
# Parent: PYL1, truncated, DHFR fusion (Arabidopsis thaliana); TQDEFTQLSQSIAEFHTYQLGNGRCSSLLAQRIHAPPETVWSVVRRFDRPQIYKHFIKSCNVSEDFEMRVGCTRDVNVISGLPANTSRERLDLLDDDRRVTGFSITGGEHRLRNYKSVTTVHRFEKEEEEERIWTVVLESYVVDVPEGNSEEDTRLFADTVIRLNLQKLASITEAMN
Substitution,relative binding score
T86R,15.2%
R24I,5.66%
E129W,7.03%
Y53R,2.3%
G108E,-1.49%
L166V,2.11%
G107C,2.01%
A170E,-7.44%
R155V,5.53%
M68V,15.8%

# Single results of other studies
Substance,target,assay,test system,setting,scale,endpoint,result
"PhoQ, residues 284 288 289 292 302 303 TLMATV","PhoP, residues 12 14 15 18 19 LHSVQ (Escherichia coli, UniProt P23836)","Sort-seq, measured: YFP reporter",E. coli,"PhoQ-PhoP variant library, added: 10 µM Mg2+","reference: high Mg2+ state, higher = stronger signaling",fold induction,2.89

# A few entries again (sample 3):
Substitution,relative binding score
L166V,2.11%
M68V,15.8%
E129W,7.03%
Y53R,2.3%
